# Experimental data collected from several papers.
# Lines come from different studies, so protocols differ.
# Target: Cyclin-dependent kinase-like 5 (CDKL5, Homo sapiens, UniProt O76039)
Compound,test,setting,how to read,measurement,result
Nc1ncc2c(n1)-c1c([nH]c3ccc(C4=CCOCC4)cc13)CCC2,"binding, competition with immobilised ligand",1 µM,,remaining binding,85%
CNC1C[S+]2CC[S+]3CC[S+](C1)[Ru-4]321([N]=C=S)[n]2c3ccc(OC)cc3c3c4c(c5cc(F)c[n+]1c5c32)C(=O)NC4=O (stereo not drawn),KinomeScan,0.1 µM,baseline: untreated,remaining binding,98%
CCN1CCN(Cc2ccc(C(=O)Nc3ccc(C)c(NCc4cnc5[nH]ccc5c4OC)c3)cc2C(F)(F)F)CC1,"binding, competition with immobilised ligand",1 µM,,remaining binding,58%
COc1cc(Nc2nc(C)cc(-c3cnn4nc(OC)ccc34)n2)cc(C(F)(F)F)c1,inhibitor,1 µM,baseline: control,remaining activity,82%
C=CC(=O)N1CCCC(n2c(=O)c3ncccc3n(Cc3ccc(Oc4ccccc4)cc3)c2=O)C1 (stereo not drawn),"cell-free assay, competition with immobilised ligand",1 µM,,remaining binding,61%
COc1cc(Nc2nccc(-c3cnn4nc(OC)ccc34)n2)cc(C(F)(F)F)c1,"binding, competition with immobilised ligand",1 µM,,remaining binding,100%
C=CC(=O)N1CCc2ccc(-n3c(=O)ccc4cnc5ccc(-c6cnn(C)c6)cc5c43)cc21,KINOMEscan,1 µM,baseline: DMSO control,remaining binding,100%
CC(C)=CC1OC(C)(C)C2C=C3C(=O)C(Cl)=CC(O)C3C3C(O)C4OC4C(=O)C132 (stereo not drawn),"cell-free assay, competition with immobilised ligand",10 µM,,remaining binding,68%
CCn1cc(C(=O)O)c(=O)c2c(N)c(F)c(NC3CCCCC3)cc21,kinase activity,"0.1 µM, together with: ATP at Km",,inhibition,28.7%
COc1c(Cl)cccc1Nc1c(-c2ccncc2C#C[C@@]2(C)CCCN2C(=O)/C=C/CN(C)C)[nH]c2c1C(=O)NCC2,"binding, competition with immobilised ligand",3 µM,,remaining binding,84%
CNC(=O)C1CCN(c2cc(C)c(F)cc2NC(=O)c2ccc(-c3cc(O)ccc3C)c(C)c2)CC1,"binding, competition with immobilised ligand",1 µM,,remaining binding,70%
CN1CCN(Cc2ccc(-c3ccc(CO[C@H]4CCC[C@@H]4NC(=O)c4cc(-c5cnn(C)c5)cnc4N)cc3)cc2)CC1,"enzyme activity, inhibitor",0.1 µM,,inhibition,9%
C=CC(=O)N1Cc2nc(-c3cc(-c4cc(Cl)cnc4Cl)c(F)cc3F)n(-c3ccncn3)c2C1,cell-free assay,1 µM,,inhibition,3.2%
Cc1cnc2nc1Nc1cccc(c1)COC/C=C/COCc1cc(ccc1OCCN1CCOCC1)N2,binding,0.1 µM,,remaining binding,91%
Cc1ccc(-c2c(/C=C(\C#N)C(=O)NC(C)C)n(CCCO)c3ncnc(N)c23)cc1,"cell-free assay, competition with immobilised ligand",1 µM,,remaining binding,100%

# Repeated from above:
Compound,test,setting,how to read,measurement,result
CNC(=O)C1CCN(c2cc(C)c(F)cc2NC(=O)c2ccc(-c3cc(O)ccc3C)c(C)c2)CC1,"binding, competition with immobilised ligand",1 µM,,remaining binding,70%
CN1CCN(Cc2ccc(-c3ccc(CO[C@H]4CCC[C@@H]4NC(=O)c4cc(-c5cnn(C)c5)cnc4N)cc3)cc2)CC1,"enzyme activity, inhibitor",0.1 µM,,inhibition,9%
